Results of several laboratories.
Protocols differ between the studies behind these lines.
Effect on: cell growth or viability

SMILES | cell line | test | conditions | viability
O=C(Nc1ccc(Oc2nnc(-c3ccc(Cl)cc3)c3ccccc23)cc1)c1cccc([N+](=O)[O-])c1 | HepG2 | MTT | 0.625 µM, 24 h | 67.7%
COc1ccc(NC(=O)NCc2cn(Cc3ccc(Cl)cc3)nn2)cc1 | Huh-7 | CCK-8 | 50 µM, 48 h | 93.7%
CC(=NNC(=O)c1ccncc1)c1ccc(Nc2nnc(-c3ccc(Cl)cc3)c3ccccc23)cc1 | HepG2 | MTT | 0.312 µM, 24 h | 35.3%
Cc1c(Cc2ccccc2)c(=O)oc2c(C)c(OCC(=O)NN=Cc3ccccc3)ccc12 | MDA-MB-231 | MTT | 31.25 µg/mL | 20.4%
COc1ccc(NC(=O)c2c(Nc3ccccc3)sc(C#N)c2NC(=O)CNc2ccccc2[N+](=O)[O-])cc1 | HCT-116 | SRB | 100 µM, 48 h | 86.5%
CC(=O)Nc1ccc(Oc2nnc(-c3ccc(Cl)cc3)c3ccccc23)cc1 | HepG2 | MTT | 0.156 µM, 24 h | 83.9%
COc1cccc(NC(=O)Nc2ccc(Oc3nc4ccccc4n4cnnc34)cc2)c1 | MDA-MB-231 | MTT | 6.25 µM, 24 h | 71.3%
COc1ccc(NC(=O)c2c(Nc3ccccc3)sc(C#N)c2NC(=O)CNc2ccc(Br)cc2)cc1 | HCT-116 | SRB | 10 nM, 48 h | 95.2%
Cc1c(Cc2ccccc2)c(=O)oc2c(C)c(OCC(=O)NN=Cc3ccco3)ccc12 | MDA-MB-231 | MTT | 250 µg/mL | 1.83%
COc1ccc(NC(=O)c2c(Nc3ccccc3)sc(C(=O)NN=Cc3cc(OC)c(OC)c(OC)c3)c2NC(C)=O)cc1 | HCT-116 | SRB | 10 µM, 48 h | 56.3%
COc1ccc(NC(=O)Nc2cccc(-c3cn(Cc4ccc(Br)cc4)nn3)c2)cc1 | Huh-7 | CCK-8 | 50 µM, 48 h | 52.8%
O=C(Nc1ccccc1)Nc1ccc(Oc2nnc(-c3ccc(Cl)cc3)c3ccccc23)cc1 | HepG2 | MTT | 0.156 µM, 24 h | 18.7%
COc1ccc(NC(=O)c2c(Nc3ccccc3)sc(C#N)c2NC(=O)CNc2ccc([N+](=O)[O-])cc2)cc1 | HCT-116 | SRB | 100 µM, 48 h | 41.3%
CC(=NNC(N)=S)c1ccc(Nc2nnc(-c3ccc(Cl)cc3)c3ccccc23)cc1 | HepG2 | MTT | 0.312 µM, 24 h | 8.46%
C=CCNC(=S)NNC(=O)COc1ccc2c(C)c(CC)c(=O)oc2c1C | MDA-MB-231 | MTT | 62.5 µg/mL | 89.2%
O=C(Nc1ccc(Oc2nnc(-c3ccc(Cl)cc3)c3ccccc23)cc1)c1ccccc1 | HepG2 | MTT | 0.312 µM, 24 h | 32.5%
COc1ccc(NC(=O)c2c(Nc3ccccc3)sc(C#N)c2NC(=O)CNc2ccc(OC)c(OC)c2)cc1 | HCT-116 | SRB | 100 µM, 48 h | 50.3%
Cc1ccc(C(CS(=O)(=O)c2ccccc2)=NNC2=NC(=O)C(=NNc3ccc([N+](=O)[O-])cc3)S2)cc1 | SK-MEL-23 | MTT | 25 µM, 48 h | 49.4%
COc1ccc(NC(=O)c2c(Nc3ccccc3)sc(C#N)c2NC(=O)CNc2ccccc2Cl)cc1 | HCT-116 | SRB | 1 µM, 48 h | 54.5%
CC(=NNC(=O)c1ccccc1Br)c1ccc(Nc2nnc(-c3ccc(Cl)cc3)c3ccccc23)cc1 | HepG2 | MTT | 10 µM, 24 h | 4.5%
CC(C)(C)c1nc(-c2cccc(NS(=O)(=O)c3c(F)cccc3F)c2F)c(-c2ccnc(N)n2)s1 | SK-MEL-23 | MTT | 1.6 µM, 48 h | 61.8%
